Measured values collected from several papers.
Every numbered part comes from another study and shows a few of its results, in no order.

Block 1
Target: Histone acetyltransferase KAT6A, winged helix 1, GST fusion (KAT6A, Homo sapiens, UniProt Q92794, residues 1-85)
Method: protein binding microarray
Molecule type: double-stranded DNA, one strand shown
Matrix: in vitro
Tested at: not given
Notes: 8-mer, flanks averaged, mean of 2 arrays, mostly near background
Baseline: not given
Direction: higher = stronger binding
Residues (chain): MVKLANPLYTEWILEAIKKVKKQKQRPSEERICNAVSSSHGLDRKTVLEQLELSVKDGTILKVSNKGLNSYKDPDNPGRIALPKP
| Oligonucleotide | E-score |
| --- | --- |
| CTGCATTC | -0.231 |
| GATGCATC | -0.0539 |
| CTACGTGA | -0.188 |
| AAACAGGC | -0.0863 |
| CGCTAACG | 0.291 |
| GAACTCGA | -0.153 |
| GGAGTTAA | -0.103 |
| AGTCGACG | 0.0664 |
| CCTCCCAG | -0.214 |
| GTGACGCA | 0.0727 |
| ACCATGAC | 0.0681 |
| CGATCGAC | 0.0862 |
| GCAGGCGC | 0.272 |
| GGGGTATA | -0.0828 |
| CTCATAGA | -0.152 |
| CACCCTCG | -0.119 |
| TCGTCCAA | -0.0601 |
| AAATTGGT | -0.139 |

Block 2
Target: Interferon regulatory factor 5, full length, phosphomimetic (IRF5, Homo sapiens, UniProt Q13568-2, residues 1-514, K96S/S451D/S453D/S456D/S462D)
Method: protein-binding microarray
Molecule type: double-stranded DNA, one strand shown
Matrix: in vitro
Tested at: 250 nM
Notes: 60-bp whole probe
Together with: salmon DNA 0.4 mg/ml
Baseline: random background probes
Direction: higher = stronger binding
Constant ends, left off below: GCCTAGCAC … GTCTTGATTCGCTTGACGCTGCTG
| Oligonucleotide | log fluorescence |
| --- | --- |
| TTAGGTATCCTACTACTTTAGTGCTAG | -0.0297 z-score |
| TCAGGTTTCCTTCTCCTTTAGTGCTAG | 1.2 z-score |
| TTAGGTATCGGGCTGGGTTAGTGCTAG | 1.82 z-score |
| TCATCATTCCAATTCTTACTGTGCTAG | 0.896 z-score |
| TTAGATTTCGGGTTTCTATTAGTGCTA | 5.82 z-score |
| GACGGTATCTGACTGGGGACGTGCTAG | -0.135 z-score |
| GACGATATCAGTCTCGATACGTGCTAG | 2.09 z-score |
| GATGGTATCGGACTGGGGACGTGCTAG | 1.39 z-score |
| TCAATTGTGGCTTTTTAACTGTGCTAG | 0.271 z-score |
| GACGATATCGGGACTAGAGACGTGCTA | 1 z-score |
| TCACATACTAATTTCCAACTGTGCTAG | 0.637 z-score |
| TCAGTTTACATTTTCCAACTGTGCTAG | 0.816 z-score |
| TTAGGACTGGACTTTGGGTTAGTGCTA | -0.432 z-score |
| GACGAACTGGGGCCTGGAGACGTGCTA | -0.69 z-score |
| TCAAGGTTTTCTCTGGTACTGTGCTAG | 0.3 z-score |
| TTAGAACTTAGTCTCGATTAGTGCTAG | 1.14 z-score |

Block 3
Target: Sal-like protein 4, full length isoform B (SALL4, Homo sapiens, UniProt Q9UJQ4-2, residues 1-616)
Method: universal PBM
Molecule type: double-stranded DNA, one strand shown
Matrix: in vitro
Tested at: not given
Notes: 8-mer, flanks averaged, mean of replicates
Direction: higher = stronger binding
Target sequence (chain): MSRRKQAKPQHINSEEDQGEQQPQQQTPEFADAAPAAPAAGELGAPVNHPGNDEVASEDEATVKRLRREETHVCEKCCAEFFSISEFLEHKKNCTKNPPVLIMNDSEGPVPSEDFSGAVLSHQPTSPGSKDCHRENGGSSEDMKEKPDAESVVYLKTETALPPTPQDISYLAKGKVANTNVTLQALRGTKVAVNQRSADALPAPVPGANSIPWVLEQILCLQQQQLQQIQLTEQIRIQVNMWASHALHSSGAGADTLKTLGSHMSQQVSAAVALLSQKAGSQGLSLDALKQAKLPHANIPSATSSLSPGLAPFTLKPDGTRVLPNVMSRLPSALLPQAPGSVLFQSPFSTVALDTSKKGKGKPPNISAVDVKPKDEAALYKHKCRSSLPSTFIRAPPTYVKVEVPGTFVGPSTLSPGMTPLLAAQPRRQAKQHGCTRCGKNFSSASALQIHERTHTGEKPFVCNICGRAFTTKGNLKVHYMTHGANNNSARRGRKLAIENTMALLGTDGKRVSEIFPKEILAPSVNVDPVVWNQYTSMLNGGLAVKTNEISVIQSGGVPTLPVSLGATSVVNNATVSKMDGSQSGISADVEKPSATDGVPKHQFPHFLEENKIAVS
| Oligonucleotide | E-score |
| --- | --- |
| GAAAATTC | 0.135 |
| GGTTCTAC | -0.0864 |
| AGTGCGGA | -0.156 |
| AGCTAGCA | -0.17 |
| ACTTGGGA | -0.0503 |
| AGGACCGA | -0.111 |
| CAAGTGTA | 0.172 |
| GACCTTAC | -0.098 |
| CGTGGTGA | -0.237 |
| AAATCTTC | 0.109 |
| AGTGTTAG | 0.0376 |
| GCGTCTTA | 0.0281 |
| CGGATAGA | 0.0277 |
| CCGAAGAC | -0.165 |
| CAGGGGGC | -0.34 |
| GTCTATCA | 0.156 |
| CACACACG | -0.134 |
| GAGCGAGA | -0.0906 |
| CAACTTGG | -0.0636 |
| TTAGACAA | 0.178 |
| ACGATTCC | 0.0631 |
| AGTGACAA | 0.102 |
| TAATTAGA | 0.266 |
| ACAGAAAA | 0.0719 |
| AATGGGGG | -0.117 |

Block 4
Target: Fragile X messenger ribonucleoprotein 1, C-terminal low-complexity region (Fmr1, Mus musculus, UniProt P35922)
Method: RNA Bind-n-Seq
Molecule type: RNA
Matrix: in vitro
Tested at: 200 nM
Notes: whole 134-nt RNA, ends assumed
Together with: 150 mM LiCl
Baseline: input library
Direction: higher = stronger binding
Library: 7-deaza-guanosine replaces G
Constant ends, left off below: GGGAGUUCUACAGUCCGACGAUC … UGGAAUUCUCGGGUGUCAAGG
| Oligonucleotide | log2 enrichment |
| --- | --- |
| GUCCUGUGCUACACAUCGUAUGUACCGAAUCGGGUUUUUUUGGGAAAAAAAGGGAGGGAAAGUAUUAUGUUACGCCGUUCGGAUCUGCAC | -1.97 |
| AGUCCUGUGCUACACAUCGUAUGUACCGAAUCGGGGAAAAGGAAAAGGGGAAAAGGGAAAGUAUUAUGUUACGCCGUUCGGAUCUGCACU | -0.797 |
| CCUCAAGUCCUGUGCUACACAUCGUAUGUACCGAAUCGGGAGGAGGGGAGGGGAAAGUAUUAUGUUACGCCGUUCGGAUCUGCACUUCCA | -0.858 |
| UCCUGUGCUACACAUCGUAUGUACCGAAUCAAAUUUUUUUAAAUUUUUAAAUUUUUAAAAAAGUAUUAUGUUACGCCGUUCGGAUCUGCA | -2.46 |
| UCCUGUGCUACACAUCGUAUGUACCGAAUCGGGGUGGGGAAAAAAAGGGGAAAAAGGGGAAAGUAUUAUGUUACGCCGUUCGGAUCUGCA | -0.944 |
| UUUCACAGAGAAGCAAAUGCUGGCACAAGGAUACCCUGCUUACACGACAUCGUGCGCCUGGCUGGGGUACUCAGAUGACACGUUGAAGCA | -0.773 |
| AAGUCCUGUGCUACACAUCGUAUGUACCGAAUCGGUUUUUUUGGUGGUUUUUUUGGAAAGUAUUAUGUUACGCCGUUCGGAUCUGCACUU | -1.65 |
| UCCUGUGCUACACAUCGUAUGUACCGAAUCGGGGCCCCCCGGGGCCCCCCGGCCCCCCGGAAAGUAUUAUGUUACGCCGUUCGGAUCUGC | -0.964 |

For quick reference, copied from above (block 2):
| Oligonucleotide | log fluorescence |
| --- | --- |
| TCATCATTCCAATTCTTACTGTGCTAG | 0.896 z-score |
| TTAGGTATCGGGCTGGGTTAGTGCTAG | 1.82 z-score |
| GACGATATCGGGACTAGAGACGTGCTA | 1 z-score |
| GACGGTATCTGACTGGGGACGTGCTAG | -0.135 z-score |
| TCAATTGTGGCTTTTTAACTGTGCTAG | 0.271 z-score |
| TTAGATTTCGGGTTTCTATTAGTGCTA | 5.82 z-score |
| GATGGTATCGGACTGGGGACGTGCTAG | 1.39 z-score |
| TTAGAACTTAGTCTCGATTAGTGCTAG | 1.14 z-score |
